Measured values gathered from unrelated publications.
Numbered parts are unrelated; each lists some results of a single study.

Set 1 — technique: protein binding microarray; molecule type: double-stranded DNA, one strand shown; medium: in vitro; tested at: not given; baseline: not given; reading: higher = stronger binding
Target: Histone acetyltransferase KAT6A, winged helix 1, GST fusion (KAT6A, Homo sapiens, UniProt Q92794, residues 1-85)
Notes: 8-mer, flanks averaged, mean of 2 arrays, mostly near background
Target sequence (chain): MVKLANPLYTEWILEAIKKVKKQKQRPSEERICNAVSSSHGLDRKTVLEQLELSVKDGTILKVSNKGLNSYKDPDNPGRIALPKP
Oligonucleotide | E-score
TATCAGCA | -0.15
AAACTAAA | -0.263
ACTTCACG | 0.0762
AACTGCTC | 0.0148
CCGGGAAA | 0.223
AACAGCTG | -0.176
GGGGCAGA | -0.121
CAACCATC | -0.01
GCTCTCTA | -0.0274
CCGTGAGC | 0.349
TGTTCCAA | -0.229
GCCAATCA | -0.21
ATAGGGGG | -0.148
AAGAGTCA | -0.273
CAGCGTTC | 0.0468
AGCTAATC | -0.05
CTTAGATA | -0.0827
ATGTTGGC | 0.0592
GAGCCCCC | 0.0948
CTTAGCGC | 0.276
AATAGCGG | 0.251
AAGCACGC | 0.0686
ATCATAGC | -0.064
AGGCATAC | -0.166
CGACGTCC | 0.171

Set 2 — technique: protein-binding microarray; molecule type: double-stranded DNA, one strand shown; medium: in vitro; tested at: 250 nM; notes: 60-bp whole probe; added: salmon DNA 0.4 mg/ml; baseline: random background probes; reading: higher = stronger binding; constant ends, left off below: GCCTAGCAC … GTCTTGATTCGCTTGACGCTGCTG
Target: Interferon regulatory factor 7, full length, phosphomimetic (IRF7, Homo sapiens, UniProt Q92985, residues 1-503, S101K/S471D/S472D/S475D/S476D/S477D/S483D/S484D/S487D)
UniProt Q92985, sequence (whole entry, unmodified, looked up): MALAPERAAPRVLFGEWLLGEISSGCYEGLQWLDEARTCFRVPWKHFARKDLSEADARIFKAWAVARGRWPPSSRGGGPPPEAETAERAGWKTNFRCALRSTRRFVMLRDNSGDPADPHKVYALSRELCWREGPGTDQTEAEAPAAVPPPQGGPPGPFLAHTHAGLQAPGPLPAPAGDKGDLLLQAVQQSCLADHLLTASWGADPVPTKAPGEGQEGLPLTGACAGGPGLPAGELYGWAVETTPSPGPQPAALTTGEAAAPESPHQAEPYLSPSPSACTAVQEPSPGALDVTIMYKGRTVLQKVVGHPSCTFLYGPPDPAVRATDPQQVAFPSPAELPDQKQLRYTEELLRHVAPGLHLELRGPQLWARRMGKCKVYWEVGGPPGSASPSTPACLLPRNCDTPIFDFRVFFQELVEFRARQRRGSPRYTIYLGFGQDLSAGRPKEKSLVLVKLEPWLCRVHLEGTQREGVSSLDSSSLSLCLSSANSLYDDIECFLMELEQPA
Oligonucleotide | log fluorescence
TTAGGTATCCTTATGCTTTAGTGCTAG | 0.0394 z-score
ATAGGTTTCGGTTCCGGTTAGTGCTAG | 13 z-score
TTAGGACTGGGGTTTCGGTTTGTGCTA | 9.94 z-score
GACGGTATCGACACTGGGAACGTGCTA | -0.287 z-score
TTAGATTTCGGGTATTGATTAGTGCTA | 0.782 z-score
TTAGGACTGGGACCGGGTTAGTGCTAG | 0.702 z-score
GTCGGACTGGGTTTCGGGACGTGCTAG | 2.31 z-score
TCTGTTTTTGCTTTCCTTCTGTGCTAG | 2.02 z-score
GAAGGTTTCGACTATCGGGACGTGCTA | 5.21 z-score
CCCTGAGTCCCTTGGGCCTTGTGCTAG | -0.642 z-score
CCTAATTCTCTTTTCACTTTGTGCTAG | 2.34 z-score
TTAGATTTCAGTTTCAATTAGTGCTAG | 2.09 z-score
GACGGTTTCCTTATCCCGACGTGCTAG | 3.89 z-score
TTAGGACTGGGGTAGCGGTTAGTGCTA | -0.765 z-score
TTAGGTATCGGAATGGGTTAGTGCTAG | 1.45 z-score
CAGTTTTCCTATGTCATTTAGTGCTAG | 2.9 z-score
TTAGGACTGGGGCTTCGGTTAGTGCTA | -0.674 z-score
TTAGGTTTCGACTGTCGGTTAGTGCTA | 4.74 z-score
GACGGTCTCGGTTTCGAGACGTGCTAG | 8.52 z-score
TTAGGACTGGGGTATCAGTTAGTGCTA | -0.487 z-score
CTAGATATCAGTCTCGATTAGTGCTAG | 2.01 z-score
TCATTTTTTGGAATGTCACTGTGCTAG | 0.632 z-score

Set 3 — technique: RNA Bind-n-Seq; molecule type: RNA; medium: in vitro; tested at: 200 nM; notes: whole 134-nt RNA, ends assumed; added: 150 mM KCl; baseline: input library; reading: higher = stronger binding
Target: Ras GTPase-activating protein-binding protein 1, full length (G3BP1, Homo sapiens, UniProt Q13283)
UniProt Q13283, sequence (whole entry, looked up): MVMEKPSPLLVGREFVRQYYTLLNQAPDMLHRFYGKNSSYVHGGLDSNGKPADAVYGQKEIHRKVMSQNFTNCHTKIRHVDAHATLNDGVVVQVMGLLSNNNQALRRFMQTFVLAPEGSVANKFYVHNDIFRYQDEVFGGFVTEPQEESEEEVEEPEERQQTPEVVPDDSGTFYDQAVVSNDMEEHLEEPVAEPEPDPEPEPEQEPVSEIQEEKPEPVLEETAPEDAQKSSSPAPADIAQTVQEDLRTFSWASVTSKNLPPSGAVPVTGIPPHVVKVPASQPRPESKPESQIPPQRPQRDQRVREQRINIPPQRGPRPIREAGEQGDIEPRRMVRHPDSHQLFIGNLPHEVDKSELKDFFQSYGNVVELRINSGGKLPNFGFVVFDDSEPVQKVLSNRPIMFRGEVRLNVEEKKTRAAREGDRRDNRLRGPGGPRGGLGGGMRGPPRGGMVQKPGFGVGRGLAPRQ
Constant ends, left off below: GGGAGUUCUACAGUCCGACGAUC … UGGAAUUCUCGGGUGUCAAGG
Oligonucleotide | log2 enrichment
UGGCCCUGGUGGCAUGCGGGGAGGAAGAGGUGACCUCAUGGAUCGUGGUGGUCCCGGUGGAAUGUUCAGAGGUGGCCGUGGUGGAGACAG | 0.203
UCAAGUCCUGUGCUACACAUCGUAUGUACCGAAUCGGGGCCGGGCCGGGCCGGGGAAAGUAUUAUGUUACGCCGUUCGGAUCUGCACUUC | 0.212
UCCUGUGCUACACAUCGUAUGUACCGAAUCGGGGUUUGGGGAAAAAAAGGGGAAAGGGGAAAGUAUUAUGUUACGCCGUUCGGAUCUGCA | 0.857
CUCAAGUCCUGUGCUACACAUCGUAUGUACCGAAUCGGAAAGGGAAAGGAAAGGAAAGUAUUAUGUUACGCCGUUCGGAUCUGCACUUCC | -0.849
UCCUGUGCUACACAUCGUAUGUACCGAAUCGGGGAAAAAAAGGGGAAAAAGGGGAGGGGAAAGUAUUAUGUUACGCCGUUCGGAUCUGCA | 0.809
UCGGCUACACUGCCCGGAGAAUUCUCAAUGAGGAUGGCAGCCCUAACCUGGACUUCAAGCCUGAAGACCAGCCCCAUUUUGACAUCAAGG | 0.244
ACCAUGCAGGUGGCCAUCUUUGGGAAGUGGGGCAAGGGGGGGAUAGGGAGGGGGGUAACACUUUGGGAACAGGUGGUCCCAGGUCGUUUC | 1.46
GCAGGAAGUAAAAACAAAUGGAAAUGCUUCGGAUAGUGGCAGGGGUGGGGGUUGCUAAGGAAAGGGUGGAAAGGGAGUGGGUAAAGAGUU | 0.798
CCUCAAGUCCUGUGCUACACAUCGUAUGUACCGAAUCGGUGGAAAGGUUUGGAAAGUAUUAUGUUACGCCGUUCGGAUCUGCACUUCCAG | -0.454
UCCUGUGCUACACAUCGUAUGUACCGAAUCGGGGCCCCCGGGGCCCCCGGGCCCCCGGGGAAAGUAUUAUGUUACGCCGUUCGGAUCUGC | -0.588
CUCAAGUCCUGUGCUACACAUCGUAUGUACCGAAUCGGCCGGGGCCGGGGCCGGAAAGUAUUAUGUUACGCCGUUCGGAUCUGCACUUCC | -0.507
UGGGAGGUGGAUUUUGUUUAUUUUUUUAGCUCAUUUCCAGGGGUGGGAAUUUUUUUUUAAUAUGUGUCAUGAAUAAAGUCGUUUUUGAAA | 0.16
UGGGAGGUGGAUUUUGUUUAUUUUUUUAGCUCAUUUCCAGAGGUGGGAAUUUUUUUUUAAUAUGUGUCAUGAAUAAAGUUGUUUUUGAAA | -0.354
CAAGUCCUGUGCUACACAUCGUAUGUACCGAAUCGGGUGGGUUUUUGGGAAAGGGAAAGUAUUAUGUUACGCCGUUCGGAUCUGCACUUC | 0.218

Set 4 — technique: aptamer microarray, sandwich; molecule type: DNA with 2'F-ANA; medium: in vitro; tested at: 200 nM; added: Cy3 exosite-II aptamer, 400 nM; reading: higher = stronger binding; oligonucleotide: GGTTGGTGTGGTTGG
Target: Prothrombin, mature alpha-thrombin (F2, Homo sapiens, UniProt P00734)
Notes: whole 15-mer aptamer, many near background
Modification | mean fluorescence intensity [a.u.]
2'F-ANA at 1 2 3 4 5 6 10 11 12 13 14 | 47
2'F-ANA at 1 2 3 4 5 7 15 | 62.7
2'F-ANA at 1 4 6 7 9 15 | 107
2'F-ANA at 1 3 5 6 9 10 12 13 | 50.3
2'F-ANA at 4 5 6 7 12 14 | 49.7
2'F-ANA at 1 2 3 5 8 9 11 13 15 | 54.9
2'F-ANA at 5 6 8 9 10 11 12 | 68
2'F-ANA at 1 3 6 7 8 9 11 14 | 86.3
2'F-ANA at 1 5 6 8 13 14 15 | 49.4
2'F-ANA at 1 9 14 | 152
2'F-ANA at 1 2 5 9 13 | 55.7
2'F-ANA at 3 4 6 8 11 13 | 505
2'F-ANA at 1 3 4 5 7 10 12 15 | 57.2
2'F-ANA at 1 2 4 5 6 7 8 11 12 13 14 | 104
2'F-ANA at 2 3 6 7 9 11 12 13 14 | 309
2'F-ANA at 3 4 5 7 8 11 12 13 14 15 | 57.7
2'F-ANA at 1 3 5 6 9 10 12 14 | 55.6
2'F-ANA at 2 3 5 6 7 11 12 13 15 | 114
2'F-ANA at 1 4 5 6 10 13 14 15 | 47.2
2'F-ANA at 2 6 7 9 10 11 12 13 14 15 | 90.1
2'F-ANA at 1 2 3 4 6 7 8 9 11 12 14 | 63.4
2'F-ANA at 1 3 7 9 14 | 90.6
2'F-ANA at 1 3 7 8 9 10 13 14 | 61.9
2'F-ANA at 1 2 5 6 7 10 13 | 58.8
2'F-ANA at 1 8 11 12 13 14 15 | 75.3

Repeated from above (set 4):
Modification | mean fluorescence intensity [a.u.]
2'F-ANA at 3 4 6 8 11 13 | 505
2'F-ANA at 1 2 3 4 5 6 10 11 12 13 14 | 47
2'F-ANA at 1 5 6 8 13 14 15 | 49.4
2'F-ANA at 1 8 11 12 13 14 15 | 75.3
2'F-ANA at 1 3 7 9 14 | 90.6
2'F-ANA at 1 3 5 6 9 10 12 13 | 50.3
